# Assay results of several laboratories.
# Compare with care: the assays were run in different laboratories. ± marks the error that the study gave.
Structure (SMILES),test,test system,conditions,AUC(0-inf)
CC(C)=CCC[C@](C)(O[C@@H]1O[C@H](CO)[C@@H](O)[C@H](O)[C@H]1O)[C@H]1CC[C@]2(C)[C@@H]1[C@H](O)C[C@@H]1[C@@]3(C)CC[C@H](O)C(C)(C)[C@@H]3[C@@H](O[C@@H]3O[C@H](CO)[C@@H](O)[C@H](O)[C@H]3O[C@@H]3O[C@@H](C)[C@H](O)[C@@H](O)[C@H]3O)C[C@]12C,,"Sprague Dawley rat, male, plasma","oral, 45 mg/kg, pure ginsenoside mixture in water",2500 ± 900 ng·h/mL
CCC[C@@]1(CCc2ccccc2)CC(O)=C([C@H](CC)c2cccc(NS(=O)(=O)c3ccc(C(F)(F)F)cn3)c2)C(=O)O1,,"Sprague Dawley rat, male, plasma","oral, 5 mg/kg, long-chain triglyceride formulation",10600 ± 1090 ng·h/mL
CC(C)=CCC[C@](C)(O[C@@H]1O[C@H](CO)[C@@H](O)[C@H](O)[C@H]1O)[C@H]1CC[C@]2(C)[C@@H]1[C@H](O)C[C@@H]1[C@@]3(C)CC[C@H](O[C@@H]4O[C@H](CO)[C@@H](O)[C@H](O)[C@H]4O[C@@H]4O[C@H](CO)[C@@H](O)[C@H](O)[C@H]4O)C(C)(C)[C@@H]3CC[C@]12C,,"Sprague Dawley rat, male, plasma","oral, 42 mg/kg, in white ginseng extract",29900 ± 8900 ng·h/mL
O=C(/C=C/c1ccc(O)c(O)c1)O[C@H](Cc1ccc(O)c(O)c1)C(=O)O,UPLC-MS/MS,"Wistar rat, microcirculation dysfunction model, plasma","oral, 100 mg/kg Salvia miltiorrhiza stem-leaf extract FS",224 ± 18.7 ng·h/mL
CCc1cc2c(cc1N1CCC(N3CCOCC3)CC1)C(C)(C)c1[nH]c3cc(C#N)ccc3c1C2=O,,"moderate hepatic impairment, plasma, total","oral, 300 mg single, fed",3280 ng·h/mL
O=C(O)C[C@H](O)C[C@H](O)/C=C/c1c(C2CC2)nc2ccccc2c1-c1ccc(F)cc1,,"male Sprague-Dawley rat (wild type), plasma","oral, 5 mg/kg",2040 ± 368 ng·h/mL
CCCC[C@H](NC(C)=O)C(=O)N[C@H]1CCC(=O)NC[C@@H](C(=O)N[C@@H](Cc2c[nH]c3ccccc23)C(N)=O)NC(=O)[C@H](CCCNC(=N)N)NC(=O)[C@@H](Cc2ccccc2)NC(=O)[C@H](Cc2c[nH]cn2)NC1=O,,"CD Sprague Dawley rat, female, plasma","subcutaneous, 5.0 mg/kg daily, day 1",4200 ng·h/mL
O=C(/C=C/c1ccc(O)c(O)c1/C=C/c1ccc(O)c(O)c1)O[C@H](Cc1ccc(O)c(O)c1)C(=O)O,UPLC-MS/MS,"Wistar rat, microcirculation dysfunction model, plasma","oral, 100 mg/kg Salvia miltiorrhiza stem-leaf extract FS",258 ± 213 ng·h/mL
CCN(CC)Cc1cc(Nc2ccnc3cc(Cl)ccc23)ccc1O,,"rat, Wistar, male, plasma","oral, 60 mg/kg, together with: myricetin 5 mg/kg iv",6420 ± 894 ng·h/mL
CNC(=O)c1ccc(-c2cnc3ncc(Cc4ccc5ncccc5c4)n3n2)cc1F,,moderate hepatic impairment,"oral, 200 mg, geometric mean",5700 ng·h/mL
O=C(CCCN1CCCN(c2ccc(Cl)cc2)CC1)c1ccc(F)cc1,,"male Sprague-Dawley rats, plasma","intravenous, 1.7 mg/kg, together with: HAL 0.7 mg/kg plus BCT 0.1 mg/kg",579 ± 130 ng·h/mL
Nc1nc2c(ncn2COCCO)c(=O)[nH]1,,rat Sprague-Dawley,"intravenous, 30 mg/kg, together with: leflunomide 30 mg/kg ip",39700 ± 2780 ng·h/mL
CC(C)=CCC[C@](C)(O[C@@H]1O[C@H](CO)[C@@H](O)[C@H](O)[C@H]1O)[C@H]1CC[C@]2(C)[C@@H]1[C@H](O)C[C@@H]1[C@@]3(C)CC[C@H](O)C(C)(C)[C@@H]3[C@@H](O[C@@H]3O[C@H](CO)[C@@H](O)[C@H](O)[C@H]3O)C[C@]12C,,"Sprague Dawley rat, male, plasma","oral, 25 mg/kg, in white ginseng extract",1800 ± 800 ng·h/mL
Cn1nnc2c(C(N)=O)ncn2c1=O,,"male athymic rat, intracranial U87 glioma, tumour extracellular fluid","oral, 50 mg/kg, recovery-corrected microdialysis, together with: after cediranib",4000 ng·h/mL
O=C(/C=C/c1ccc(O)c2c1[C@H](C(=O)O)[C@@H](c1ccc(O)c(O)c1)O2)O[C@H](Cc1ccc(O)c(O)c1)C(=O)O,UPLC-MS/MS,"Wistar rat, microcirculation dysfunction model, plasma","oral, 100 mg/kg Salvia miltiorrhiza stem-leaf extract FT",188 ± 135 ng·h/mL
C=CC(N)CCC(=O)O (stereo not shown),,"male Sprague-Dawley rat, plasma","oral, 1.0 mg/kg, formulation 4, together with: proline and tryptophan 100 mg/kg each",1770 ± 86 ng·h/mL
CC(C)=CCC[C@](C)(O[C@@H]1O[C@H](CO[C@@H]2O[C@H](CO)[C@@H](O)[C@H](O)[C@H]2O)[C@@H](O)[C@H](O)[C@H]1O)[C@H]1CC[C@]2(C)[C@@H]1[C@H](O)C[C@@H]1[C@@]3(C)CC[C@H](O[C@@H]4O[C@H](CO)[C@@H](O)[C@H](O)[C@H]4O[C@@H]4O[C@H](CO)[C@@H](O)[C@H](O)[C@H]4O)C(C)(C)[C@@H]3CC[C@]12C,,"Sprague Dawley rat, male, plasma","oral, 86 mg/kg, in red ginseng extract",93600 ± 10500 ng·h/mL
O=C(O)/C=C/c1ccc(O)c(O)c1,UPLC-MS/MS,"Wistar rat, microcirculation dysfunction model, plasma","oral, 100 mg/kg Salvia miltiorrhiza stem-leaf extract FT",83.6 ± 78.7 ng·h/mL
C[C@@H](CNCc1ccccc1)N1C[C@H](CCCNC(=N)N)N(CCc2cccc(F)c2)C1=S,,"rat, plasma","intravenous, 5 mg/kg",1960 to 2680 ng·h/mL

# For quick reference, copied from above:
Structure (SMILES),test,test system,conditions,AUC(0-inf)
O=C(O)/C=C/c1ccc(O)c(O)c1,UPLC-MS/MS,"Wistar rat, microcirculation dysfunction model, plasma","oral, 100 mg/kg Salvia miltiorrhiza stem-leaf extract FT",83.6 ± 78.7 ng·h/mL
C[C@@H](CNCc1ccccc1)N1C[C@H](CCCNC(=N)N)N(CCc2cccc(F)c2)C1=S,,"rat, plasma","intravenous, 5 mg/kg",1960 to 2680 ng·h/mL
